Experimental data gathered from unrelated publications.
Each numbered part is a random draw from the data of one study; scales do not carry over between parts. Substitutions count along the parent as printed.

Study 1 — method: protein-binding microarray; molecule type: hairpin DNA; medium: in vitro; concentration: not given; reference: not given; direction: higher = stronger binding
Target: Cyclic AMP-responsive element-binding protein 1, full length (CREB1, Homo sapiens, UniProt P16220, residues 1-327)
Chain of UniProt P16220 (whole entry, looked up): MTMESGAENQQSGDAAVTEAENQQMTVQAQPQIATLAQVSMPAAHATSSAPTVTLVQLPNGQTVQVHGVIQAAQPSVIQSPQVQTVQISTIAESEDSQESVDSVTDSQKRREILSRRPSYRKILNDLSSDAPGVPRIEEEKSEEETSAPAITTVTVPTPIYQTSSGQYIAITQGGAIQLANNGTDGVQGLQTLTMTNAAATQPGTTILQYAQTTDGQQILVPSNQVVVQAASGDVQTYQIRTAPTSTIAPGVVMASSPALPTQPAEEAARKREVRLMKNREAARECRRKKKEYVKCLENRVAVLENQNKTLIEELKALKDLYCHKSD
Notes: whole hairpin DNA, median over replicate spots
| Strand | median fluorescence [a.u.] |
| --- | --- |
| GAGGCCGACGACGTTGTGCCTCCTGGCACAACGTCGTCGGCCTCACACTC (5mC at 9 29 35) | 4800 |
| GAGGCCTGATGACGTCAGCCTCCTGGCTGACGTCATCAGGCCTCACACTC | 27600 |
| GAGGCCGGATCGCGTCAGCCTCCTGGCTGACGCGATCCGGCCTCACACTC | 3900 |
| GAGGCCCGATGACGTCAGCCTCCTGGCTGACGTCATCGGGCCTCACACTC | 26000 |
| GAGGCCGGCTGACGTCCGCCTCCTGGCGGACGTCAGCCGGCCTCACACTC (5mC at 17) | 4280 |
| GAGGCCGACGACGCCGTGCCTCCTGGCACGGCGTCGTCGGCCTCACACTC (5mC at 9 14 15 29 35) | 3670 |
| GAGGCCGGCTGACGTCGGCCTCCTGGCCGACGTCAGCCGGCCTCACACTC | 5400 |
| GAGGCCGACCGCGTCGTGCCTCCTGGCACGACGCGGTCGGCCTCACACTC (5mC at 9 15 29) | 3390 |

Study 2 — method: aptamer microarray, sandwich; molecule type: DNA with 2'F-ANA; medium: in vitro; concentration: 200 nM; with: Cy3 exosite-II aptamer, 400 nM; direction: higher = stronger binding; strand: GGTTGGTGTGGTTGG
Target: Prothrombin, mature alpha-thrombin (F2, Homo sapiens, UniProt P00734)
Notes: whole 15-mer aptamer, many near background
| Modification | mean fluorescence intensity [a.u.] |
| --- | --- |
| 2'F-ANA at 3 4 5 6 9 11 12 | 155 |
| 2'F-ANA at 2 10 15 | 134 |
| 2'F-ANA at 1 2 3 4 6 7 8 9 10 11 13 15 | 55.2 |
| 2'F-ANA at 1 2 5 9 12 13 14 | 42.4 |
| 2'F-ANA at 6 8 9 10 12 14 15 | 101 |
| 2'F-ANA at 1 5 11 13 14 | 42.7 |
| 2'F-ANA at 1 3 4 6 7 11 12 14 15 | 76.9 |
| 2'F-ANA at 1 3 4 9 10 14 | 51.7 |

Study 3 — method: competition protein-binding microarray; molecule type: double-stranded DNA, one strand shown; medium: in vitro; concentration: 2 µM; with: Cbf1 competitor, 0.05 µM; direction: higher = stronger binding; all sequences stand within: … GTCTTGATTCGCTTGACGCTGCTG
Target: Phosphate system positive regulatory protein PHO4, full length, GST-tagged (PHO4, Saccharomyces cerevisiae, UniProt P07270, residues 1-312)
Notes: whole 60-bp probe, lowest competitor level
Residues (chain): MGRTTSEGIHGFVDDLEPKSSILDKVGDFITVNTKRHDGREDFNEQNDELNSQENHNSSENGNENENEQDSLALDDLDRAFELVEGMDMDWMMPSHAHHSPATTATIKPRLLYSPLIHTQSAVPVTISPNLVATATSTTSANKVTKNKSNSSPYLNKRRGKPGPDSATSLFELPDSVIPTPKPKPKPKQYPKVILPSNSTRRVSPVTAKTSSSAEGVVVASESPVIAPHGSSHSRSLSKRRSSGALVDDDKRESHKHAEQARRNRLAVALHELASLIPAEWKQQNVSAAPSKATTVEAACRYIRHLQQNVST
| Strand | fluorescence intensity |
| --- | --- |
| ATGTCCATTCCCTGGCACGTGATGGCGAGTACTTCC | 19100 a.u. |
| TTGGGGCAGATACTTCGTGTGACAGTGGCCAATTCA | 4600 a.u. |
| CTAACGAAGGTTTGCACTGTGGGTGACAAGCCAAGT | 4170 a.u. |
| CGGGGTTAAGTTTTTCACGTGCGCTGCTTGCAGCAG | 12300 a.u. |
| CCGGGAAATCGCTGGCACGCACAGCATATAGAGTAG | 12000 a.u. |
| TGCGCAACAACTTGATTGGTGGGTGTATGTCTAGAA | 4560 a.u. |
| TTTATATAAAGGGTACTCGTGCAAACGGACATCGAG | 9100 a.u. |
| TATGGCAAAAATCGAAACGTGGGTAAGTTTCGAGCC | 13800 a.u. |

Mixed results
Starting sequence: viral docking peptide; KKVKRRLFETREL; partner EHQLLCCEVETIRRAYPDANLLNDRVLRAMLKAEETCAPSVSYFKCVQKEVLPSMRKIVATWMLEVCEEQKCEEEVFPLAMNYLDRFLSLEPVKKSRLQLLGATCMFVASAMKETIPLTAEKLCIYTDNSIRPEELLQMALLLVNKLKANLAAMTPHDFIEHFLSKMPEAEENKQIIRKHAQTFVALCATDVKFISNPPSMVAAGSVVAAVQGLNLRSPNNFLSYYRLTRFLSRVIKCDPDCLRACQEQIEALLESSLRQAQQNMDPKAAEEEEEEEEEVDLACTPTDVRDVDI
| Variant | target | test | system | setting | how to read | endpoint | result |
| --- | --- | --- | --- | --- | --- | --- | --- |
| KKVKRRLLETREL [F8L] | CCND1, cyclin fold, Cln2 fusion (human) | yeast growth competition, sequencing | yeast | weak parent motif | reference: not given, higher = stronger binding | normalised enrichment score | 0.0333 |

Excerpt of the above (study 1):
| Strand | median fluorescence [a.u.] |
| --- | --- |
| GAGGCCGACGACGTTGTGCCTCCTGGCACAACGTCGTCGGCCTCACACTC (5mC at 9 29 35) | 4800 |
| GAGGCCTGATGACGTCAGCCTCCTGGCTGACGTCATCAGGCCTCACACTC | 27600 |
| GAGGCCGGATCGCGTCAGCCTCCTGGCTGACGCGATCCGGCCTCACACTC | 3900 |
